Published values collected from several papers.
Parts stem from different laboratories: compare values within a part only. Positions count from the first letter of the parent shown.

Study 1
Target: RING finger protein unkempt homolog, zinc fingers 1-6, SBP tag (UNK, Homo sapiens, UniProt Q9C0B0, residues 30-357)
UniProt Q9C0B0, sequence (30-357, looked up): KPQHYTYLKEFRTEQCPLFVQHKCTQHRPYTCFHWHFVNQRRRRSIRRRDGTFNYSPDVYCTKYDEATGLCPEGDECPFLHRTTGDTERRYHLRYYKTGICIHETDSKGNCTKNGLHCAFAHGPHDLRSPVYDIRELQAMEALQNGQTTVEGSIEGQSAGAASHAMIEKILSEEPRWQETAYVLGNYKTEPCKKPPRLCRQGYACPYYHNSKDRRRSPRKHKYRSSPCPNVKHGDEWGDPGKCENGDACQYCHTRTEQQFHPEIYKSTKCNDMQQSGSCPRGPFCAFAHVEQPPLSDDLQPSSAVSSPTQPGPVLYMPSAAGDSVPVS
Method: RNA Bind-n-Seq
Form: RNA
Sample: in vitro
Tested at: 100 nM
Setting: RNA with constant flanks, vertebrate orthologous sites, ends assumed
Baseline: input RNA pool
Reading: higher = stronger binding
Measurement: bound/input enrichment
GGGAGUUCUACAGUCCGACGAUCGUGACUUUGGACGUCCGUUCCUGCUCUGUGGAGGCGUUGCUUCGUUCCGGGCCUUGCGGCAACUCGGUUUUUCCUUCCGCGCGGGAGACCUCUGCCACAACCAUGUUACGCCAGAUCAUCCAACAGAGGAUUGAGCAUCA: 0.466 ratio
GGGAGUUCUACAGUCCGACGAUCAUCCCUCAGUGACAGUAUGCCAUCUGUAGCGGAUUCCCACUCGAGUCACUUUUCCGAGUUCAGCUGCUCAGACUUAGAGAGCAUGAGAACAUCCUGUAGCCAUGGUUCCAGUGACUGUCACAACAGAGGAUUGAGCAUCA: 0.642 ratio
GGGAGUUCUACAGUCCGACGAUCAGCAAGCCAAGGACUCAGGACUGGUUUUACAAAUAUGCCAAGUAGAUAUGGAACUAACAAUAGAAUUGGACAACCAAGACCAUGAUGUACUGUACUUUAAUUUAUUUUUAUGAGGAAUAUCAACAGAGGAUUGAGCAUCA: 0.868 ratio
GGGAGUUCUACAGUCCGACGAUCAGCCAUUUUUUUCCACGUUUUCUGUAAAUAAUGGAUAAUCGUUUUUAAAAAUUUUAUUUUUAGUGCUGUUUUAGCAAUGUGGAUAGAUCAUAAAUGUACUUGCUGAAUUCAAUUAUUUUUCAACAGAGGAUUGAGCAUCA: 0.423 ratio

Study 2
Target: CCNB3, cyclin fold, Cln2 fusion (human)
Method: yeast growth competition, sequencing
Sample: yeast
Setting: weak parent motif
Baseline: not given
Reading: higher = stronger binding
Measurement: normalised enrichment score
Starting sequence: PKN2 docking peptide (human); VSAVQKLDFSDTM
S10P: 0.453
F9E: 0.244
M13P: -0.0768
M13L: 0.163

Study 3
Target: Ras GTPase-activating protein-binding protein 1, C-terminal RGG region (G3BP1, Homo sapiens, UniProt Q13283)
UniProt Q13283, sequence (whole entry, looked up): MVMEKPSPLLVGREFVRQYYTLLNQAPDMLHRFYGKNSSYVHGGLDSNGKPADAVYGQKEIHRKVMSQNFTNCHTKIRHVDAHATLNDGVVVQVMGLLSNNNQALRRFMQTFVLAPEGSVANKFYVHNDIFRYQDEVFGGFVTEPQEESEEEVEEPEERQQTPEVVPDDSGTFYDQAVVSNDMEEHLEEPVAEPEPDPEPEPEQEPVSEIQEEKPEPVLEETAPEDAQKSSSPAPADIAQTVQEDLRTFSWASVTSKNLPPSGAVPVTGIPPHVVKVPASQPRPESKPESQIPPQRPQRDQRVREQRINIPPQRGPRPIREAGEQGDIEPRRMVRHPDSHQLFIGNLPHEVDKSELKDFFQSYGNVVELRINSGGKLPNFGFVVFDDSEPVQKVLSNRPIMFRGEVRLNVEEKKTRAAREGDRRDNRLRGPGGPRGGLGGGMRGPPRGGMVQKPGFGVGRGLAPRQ
Method: RNA Bind-n-Seq
Form: RNA
Sample: in vitro
Tested at: 1 µM
Setting: whole 134-nt RNA, ends assumed
Added: 150 mM KCl
Baseline: input library
Reading: higher = stronger binding
Measurement: log2 enrichment
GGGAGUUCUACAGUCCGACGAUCCCUCAAGUCCUGUGCUACACAUCGUAUGUACCGAAUCGGGGAGGAGGGGAGGAAAGUAUUAUGUUACGCCGUUCGGAUCUGCACUUCCAGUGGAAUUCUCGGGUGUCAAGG: -0.483
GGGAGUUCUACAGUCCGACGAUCUUCAGGAUGAAGAUGCAUCAGGGGGCGAUCAAGAUCAGGAAGAAAGAAGAUGGAACAAAAGGACUCAGCAGAUGCUUCAUGGUCUUCAGGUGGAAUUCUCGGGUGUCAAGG: -1.88
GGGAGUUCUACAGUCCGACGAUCUUCCUCAAGUCCUGUGCUACACAUCGUAUGUACCGAAUCGGAGGAGGGAGGAAAGUAUUAUGUUACGCCGUUCGGAUCUGCACUUCCAGCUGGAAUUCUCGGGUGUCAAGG: -1.32
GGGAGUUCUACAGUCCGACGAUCAAAGGAAGUAAAAACAAAUGGAAAUGCUUCGGAUAGUGGCAGGGGUGGGGGUUGCUAAGGAAAGGGUGGGAUGGGAGUGGGUAAAGAGUUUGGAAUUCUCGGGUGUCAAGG: 1.66
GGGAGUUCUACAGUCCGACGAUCCUGUGCUACACAUCGUAUGUACCGAAUCGGCCCCCCCGGCCCCCCCGGGGCCCCCCCGGGGAAAGUAUUAUGUUACGCCGUUCGGAUCUGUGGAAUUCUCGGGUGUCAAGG: -2.16

Single results of other studies
PhoQ, residues 284 288 289 292 302 303 SACGEM  fold induction (PhoP, residues 12 14 15 18 19 VQGLL (Escherichia coli, UniProt P23836); Sort-seq, measured: YFP reporter; E. coli; PhoQ-PhoP variant library, added: 10 µM Mg2+; baseline: high Mg2+ state, higher = stronger signaling): 3.35

For quick reference, copied from above (study 2):
S10P: 0.453
